Results pooled from the literature.
A part holds a random share of what one study measured.

Series 1 — technique: protein binding microarray; form: double-stranded DNA, one strand shown; matrix: in vitro; tested at: not given; baseline: not given; direction: higher = stronger binding; quantity: E-score
Target: Histone acetyltransferase KAT6A, both winged helices, GST fusion (KAT6A, Homo sapiens, UniProt Q92794, residues 1-181)
Setting: 8-mer, flanks averaged, mean of 2 arrays, mostly near background
Construct (chain): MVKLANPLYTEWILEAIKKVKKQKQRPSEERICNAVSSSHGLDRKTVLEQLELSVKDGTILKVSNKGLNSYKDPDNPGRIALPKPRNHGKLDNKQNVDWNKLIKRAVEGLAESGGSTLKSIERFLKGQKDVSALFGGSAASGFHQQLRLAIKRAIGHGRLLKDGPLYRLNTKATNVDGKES
ACGATGCA: -0.169
ACTGCACC: -0.00912
ATCAAATA: -0.124
CCGGCCCA: -0.0457
AACATCGT: -0.0394
ACTAAGTC: -0.125
GCGGAGAC: 0.291
CCTGCAAC: -0.049
CTGTCGTA: -0.0587
CACGATCA: -0.0509
GGGCCTAC: -0.0503
CGACGAGC: 0.00574
AGCATTGC: -0.0325
GCCCAAAC: -0.0157
CTAGTAGC: -0.00708
GACATTCA: 0.0583
AGGAGGGA: -0.196
AAGGAGCG: 0.243
GCGGCGGA: 0.357
GGGAGGGA: -0.0426
ATGTCTAA: -0.0171
CGGGAATC: 0.165
ACAGACGC: 0.123
GTATTATA: 0.00128
TACGCATA: 0.133

Series 2 — technique: RNA Bind-n-Seq; form: RNA; matrix: in vitro; tested at: not given; setting: RNA with constant flanks, ends assumed; baseline: input RNA pool; direction: higher = stronger binding; quantity: bound/input enrichment
Target: RING finger protein unkempt homolog, zinc fingers 1-6, GST-SBP tag (UNK, Homo sapiens, UniProt Q9C0B0, residues 30-357)
All sequences stand within: GGGAGUUCUACAGUCCGACGAUC … CAACAGAGGAUUGAGCAUCA
Residues (chain): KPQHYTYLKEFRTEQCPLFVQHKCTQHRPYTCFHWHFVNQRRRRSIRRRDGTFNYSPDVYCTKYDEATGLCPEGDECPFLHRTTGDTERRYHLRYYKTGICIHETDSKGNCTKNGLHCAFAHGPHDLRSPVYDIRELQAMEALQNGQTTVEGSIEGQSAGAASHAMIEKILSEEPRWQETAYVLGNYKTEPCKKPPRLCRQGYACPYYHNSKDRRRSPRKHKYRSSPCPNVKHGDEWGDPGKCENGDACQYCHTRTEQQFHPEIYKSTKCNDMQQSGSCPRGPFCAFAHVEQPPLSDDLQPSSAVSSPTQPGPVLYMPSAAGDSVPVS
GGGCAGUUUGCUUUCCAUGUUGGUCUUCCUGCAAAAUCUGGAGUUGCUGGGGGCAUUCUUUCCGUUGUCCCCAAUGUUAUGGGUAUGAUGUGCUGGUCUCCUCCUCUGGAUAAGAUGGGC: 0.554 ratio
UGUGGCUGCUUUCUUUGGUGCCCUCCCCUCACCCCACUGUAGCUGUGACGUGUUGCCGUUUUCCGAUGUUUGUAAAAUGUUUAAAAAAAUGUUAAAAGGAAAAAAGUGAAAAUAACAAAA: 0.508 ratio
UUUUUUACAUUUUUUGGGCAGCAAUUUAAAUGUUAUGACUAUGUAAACUACUUCUCUUGUCCGGUAAUUUUUUUCACCUAGAUUUUUUUCCCAAUUGAGAAAAAUAUAUACUAAACAAAA: 2.24 ratio
UUUUUUUUUUCUGUGUAAAUCAUCAACUAUAAGAAGAAACUAUGGGACUCUAAGCCUGGCUUCCGAGAAUUUACAGUGGACAAAUAGGUUUCAUCAAACCAGUUUUUAAUCAUUCUGACU: 0.26 ratio
GAAAUUUCCUUGUAUAUCCCCAAAAUGCUAACUGAAGAACGCCAUCUUCAUGAACUUGACACCGUGCCUCCUUUACCUUUUUUUCCUAAGGCUCACACCGAAACCUCCAGGGCCAAGUGA: 0.373 ratio
CGUGCACUGGGUUAAAAACGACAACGAGCACCAACCAUGAAAGAUCCAAGUCGCAGCAGUACCCGCCCAAGCAUCAUCAAUGACGAUGUGAUUAUUAACGGUCAUUCUCAUGAAGAGGAU: 0.0994 ratio
AUGAGCAUAAAUGAAGCUAAGGAAUAUGAAGUGUACGACAGUUCGCCUCAUCUUGAGUGCCCCGCAGAAUUUCAGGAGAAAGUCAGGAAGACCAACAAUUUUUCAGCUUUUCUUGCCAAU: 0.111 ratio
GUGGUUUGUCUUAUCUCCUGCCUUGAUCUUCCAUGUCAUUUCCCAGUGGGCAACUAUCAUCCGUUUAUACCUCGAUUUUAUUUGCCCUGUGUAAUUUUUAACUAAAAAUGUUACAUAACC: 0.155 ratio

Series 3 — technique: RNA Bind-n-Seq; form: RNA; matrix: in vitro; tested at: 365 nM; baseline: no-protein control; direction: higher = stronger binding; quantity: RBNS enrichment (R)
Target: RNA binding protein fox-1 homolog 2, RRM domain, GST-SBP tag (RBFOX2, Homo sapiens, UniProt O43251-10, residues 100-194)
Setting: natural RNA segment, single round, ends assumed
All sequences stand within: GGGAGUUCUACAGUCCGACGAUC … UGGAAUUCUCGGGUGCCAA
Target sequence (chain): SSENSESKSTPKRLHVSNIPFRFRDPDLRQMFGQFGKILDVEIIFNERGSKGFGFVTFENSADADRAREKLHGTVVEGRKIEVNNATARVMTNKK
AGGAUGCCCUAGUCCUUGAUGGGGCAGGGUAGGACCUCUGGGGCAGAUGGCCUCCCUGCUCUUCUGGCCCCCAUGUCAUAGUUAAAACUGACAAGGAUUUGAAAAAGACU: 0.277
CCAGCAUUCCCGGGUGGGCCCAGACCCCAUCACCAAGACUGGCCACCCGCUGCGUGUGUGUGCGCGCGCGUGUACGUGUGGCCCCACAUCCGCCGCCUUCCACGCUAGGA: 0.54
GCAAUGGAUAUAAAUGUACUGUGAGUCUCUCGGUUCAGUAUUAGGUUCACUUUAAUUUAUUUAUGCUGUAAGUUAUUUUUGCUUCCUUCUCCUGGACCCACUUCCAGUCC: 0.335
GUGUAUAUAUAUAUAUAUAUAUAUAUAUAGCCACACAUGAUCAUACUUAUAUAUGAUGUUUCCAUAUAUGUGCUGUGUGUUUAAGUUUUGUAUCAUCCAGACUGAUACCA: 0.573
CCAUAGUUUUUAAUCCCAAAGUUAUUUAAACAUCAGUAAGACAAGGUACCACUUCAUACAGUGAAAAGUGGAAUCUACAGAUAUAAAGCAGUUGAGGAAAAAAGACAACA: 0.367
CUGGUGUCCCCCCAGGCUACCUGCUCAGGAACCCCUUCUGUUCUCUGAGAAGUCAAGAGAGGACAUUGGCUCACGCACUGUGAGAUUUUGUUUUUAUACUUGGAAGUGGU: 0.468
UCUGCAUGAAGUAGGGACCCCACACUAGAUAACCCCUCUUGUAAAGUAUGAGCCCAUCUCACUGGGCUAUCUGACUCUCCACCCUCCUUGUUAGUCUCUGAGGAACAGUG: 1.87
GCCCGUGUGUACAGUCUGUGGAGUUUAGCUUAACGGGCAGGGCCCACAUGUACAGUGUCUGUAUAUAAAUGUGCUGUAUCUGUUCAUUUCUAUGACUGCAGGGUUUUUUU: 0.405

Series 4 — technique: protein-binding microarray; form: double-stranded DNA, one strand shown; matrix: in vitro; tested at: 2540 nM top; setting: 60-bp whole probe; together with: salmon DNA 0.4 mg/ml; baseline: random background probes; direction: higher = stronger binding; quantity: fitted relative affinity; all sequences stand within: GCCTAGCAC … GTCTTGATTCGCTTGACGCTGCTG
Target: Interferon regulatory factor 3, full length, phosphomimetic (IRF3, Homo sapiens, UniProt Q14653, residues 1-427, S386D/S396D/S398D/S402D/T404D/S405D)
Construct (chain): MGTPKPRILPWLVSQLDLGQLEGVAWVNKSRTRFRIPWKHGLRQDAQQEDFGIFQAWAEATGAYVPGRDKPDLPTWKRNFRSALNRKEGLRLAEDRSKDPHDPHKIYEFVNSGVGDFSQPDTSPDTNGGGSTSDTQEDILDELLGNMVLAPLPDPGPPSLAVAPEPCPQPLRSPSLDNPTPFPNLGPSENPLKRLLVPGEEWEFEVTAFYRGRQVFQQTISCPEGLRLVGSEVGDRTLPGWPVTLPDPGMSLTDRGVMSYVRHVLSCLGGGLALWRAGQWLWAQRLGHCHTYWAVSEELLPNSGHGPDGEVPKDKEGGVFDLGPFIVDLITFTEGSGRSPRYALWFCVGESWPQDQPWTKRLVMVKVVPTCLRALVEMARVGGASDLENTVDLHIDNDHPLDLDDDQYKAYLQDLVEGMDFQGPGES
GACGGTTTCGACACTGGGCACGTGCTA: 3.24 z-score
AACGGTCTCGGTCTCGGGACGTGCTAG: 1.21 z-score
TAAGGTATCGGGTTTCGGTTAGTGCTA: 3.82 z-score
AGGGTCTTCAGGTTCTCCCCGTGCTAG: -0.843 z-score
TTAGATATCCTACTGCTTTAGTGCTAG: 0.798 z-score
TTAGGTTTCGGACTGGGATAGTGCTAG: 4 z-score
TCATTTATAAATTATCTTACTGTGCTA: 1.39 z-score
TTAGTACTGGGTATCGGTTAGTGCTAG: 0.644 z-score
GACGGTATCGGGTTTAGGGACGTGCTA: 2.2 z-score
GTCCCTATCTCCTCACAGACCGTGCTA: 2.3 z-score
TTAGGAATCGACTATCGGTTAGTGCTA: -0.09 z-score
GTAAATCTTTTTCCCTATTAGTGCTAG: 2.44 z-score
GACAATCTCAGACTGGAGACGTGCTAG: 0.194 z-score
GACGGTTTCGGTATCGTGACGTGCTAG: 8.07 z-score
TTTACTTTCTGAATGCCCTTGTGCTAG: 5.57 z-score
GACGGCCTGGACTATCGGGACGTGCTA: -0.972 z-score
GACGGTTTCCTTATCCAGACGTGCTAG: 8.44 z-score
TCAAGTCTGGGAGATGAAACTGTGCTA: -0.78 z-score
GTAGAACTGAGACTGGATTAGTGCTAG: -0.318 z-score

Series 5 — technique: universal PBM; form: double-stranded DNA, one strand shown; matrix: in vitro; tested at: not given; direction: higher = stronger binding; quantity: E-score
Target: Sal-like protein 4, full length isoform B (SALL4, Homo sapiens, UniProt Q9UJQ4-2, residues 1-616)
Setting: 8-mer, flanks averaged, mean of replicates
CGCTACAA: 0.0255
GGCAAGTA: -0.0135
CAGGATTA: 0.116
GAATTACA: 0.182
AATTATGC: 0.358
CTGCCGAA: -0.107
TCGGCGAA: -0.0751
ATCTTCCA: 0.0457
CAGGGCGG: -0.22
GACTATGC: -0.0289
CTCGTGCA: -0.0779
ACGCGGCA: -0.333
GCCCTAAC: -0.00389
TCAGTTCA: 0.0166
GTTTTTTA: 0.196
ATTTAATG: 0.277
AACCCATG: -0.11

Repeated from above (series 4):
GTAGAACTGAGACTGGATTAGTGCTAG: -0.318 z-score
GTAAATCTTTTTCCCTATTAGTGCTAG: 2.44 z-score
AACGGTCTCGGTCTCGGGACGTGCTAG: 1.21 z-score
GACAATCTCAGACTGGAGACGTGCTAG: 0.194 z-score
GACGGTATCGGGTTTAGGGACGTGCTA: 2.2 z-score
TAAGGTATCGGGTTTCGGTTAGTGCTA: 3.82 z-score
TTAGGAATCGACTATCGGTTAGTGCTA: -0.09 z-score
